Assay results pooled from the literature.
Numbered parts are unrelated; each lists some results of a single study.

Series 1
Target: Sal-like protein 4, full length isoform A (SALL4, Homo sapiens, UniProt Q9UJQ4, residues 1-1053)
UniProt Q9UJQ4, sequence (whole entry, looked up): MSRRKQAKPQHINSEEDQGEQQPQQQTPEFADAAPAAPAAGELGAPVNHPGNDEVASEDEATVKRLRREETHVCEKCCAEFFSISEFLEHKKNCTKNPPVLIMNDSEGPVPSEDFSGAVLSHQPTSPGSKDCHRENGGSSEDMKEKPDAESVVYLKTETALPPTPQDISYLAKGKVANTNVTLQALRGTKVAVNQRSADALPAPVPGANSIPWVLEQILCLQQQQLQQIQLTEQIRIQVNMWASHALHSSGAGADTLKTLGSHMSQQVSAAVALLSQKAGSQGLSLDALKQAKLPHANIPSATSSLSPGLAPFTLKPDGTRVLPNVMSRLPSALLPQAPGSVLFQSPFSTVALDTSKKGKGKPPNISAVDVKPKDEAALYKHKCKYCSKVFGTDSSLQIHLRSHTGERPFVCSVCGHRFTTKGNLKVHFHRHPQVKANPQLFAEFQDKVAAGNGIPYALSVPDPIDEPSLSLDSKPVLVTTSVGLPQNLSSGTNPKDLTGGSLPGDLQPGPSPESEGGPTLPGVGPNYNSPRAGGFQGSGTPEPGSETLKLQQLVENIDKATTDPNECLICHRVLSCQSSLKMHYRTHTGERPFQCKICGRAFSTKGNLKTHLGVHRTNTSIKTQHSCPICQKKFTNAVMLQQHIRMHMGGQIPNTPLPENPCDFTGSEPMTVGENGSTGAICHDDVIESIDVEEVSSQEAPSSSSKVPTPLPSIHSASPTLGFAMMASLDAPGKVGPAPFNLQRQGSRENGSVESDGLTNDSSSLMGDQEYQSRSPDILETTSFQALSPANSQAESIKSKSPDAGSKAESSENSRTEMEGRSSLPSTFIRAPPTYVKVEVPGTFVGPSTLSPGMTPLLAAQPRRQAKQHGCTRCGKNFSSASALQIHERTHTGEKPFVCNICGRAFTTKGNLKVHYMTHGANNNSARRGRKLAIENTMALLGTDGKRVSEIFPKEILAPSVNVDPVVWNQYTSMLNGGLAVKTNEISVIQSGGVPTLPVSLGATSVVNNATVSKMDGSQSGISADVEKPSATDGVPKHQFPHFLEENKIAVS
Method: universal PBM
Molecule type: double-stranded DNA, one strand shown
Matrix: in vitro
Concentration: 600 nM
Notes: 8-mer, flanks averaged, mean of replicates
Reading: higher = stronger binding
Oligonucleotide	E-score
AAAGAAAT	0.342
TAATTGTA	0.38
AATGCCGG	-0.0667
GTAGCTAA	0.0408

Series 2
Target: Histone acetyltransferase KAT6A, both winged helices, GST fusion (KAT6A, Homo sapiens, UniProt Q92794, residues 1-181)
Method: protein binding microarray
Molecule type: double-stranded DNA, one strand shown
Matrix: in vitro
Concentration: not given
Notes: 8-mer, flanks averaged, mean of 2 arrays, mostly near background
Baseline: not given
Reading: higher = stronger binding
Target sequence (chain): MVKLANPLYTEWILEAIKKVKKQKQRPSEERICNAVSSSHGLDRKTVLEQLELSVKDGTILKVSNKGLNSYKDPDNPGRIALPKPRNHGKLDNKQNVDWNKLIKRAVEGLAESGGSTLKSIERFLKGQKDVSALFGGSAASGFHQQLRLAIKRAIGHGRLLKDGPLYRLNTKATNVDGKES
Oligonucleotide	E-score
ACGTATGC	0.082
GGGGCAAC	-0.0962
AGGGCTTG	-0.0771
CACTGGCC	-0.0445
CAGATCTG	-0.201

Further values, each from its own experiment
G3BP1 full length: Ras GTPase-activating protein-binding protein 1, full length (G3BP1, Homo sapiens, UniProt Q13283)
UniProt Q13283, sequence (whole entry, looked up): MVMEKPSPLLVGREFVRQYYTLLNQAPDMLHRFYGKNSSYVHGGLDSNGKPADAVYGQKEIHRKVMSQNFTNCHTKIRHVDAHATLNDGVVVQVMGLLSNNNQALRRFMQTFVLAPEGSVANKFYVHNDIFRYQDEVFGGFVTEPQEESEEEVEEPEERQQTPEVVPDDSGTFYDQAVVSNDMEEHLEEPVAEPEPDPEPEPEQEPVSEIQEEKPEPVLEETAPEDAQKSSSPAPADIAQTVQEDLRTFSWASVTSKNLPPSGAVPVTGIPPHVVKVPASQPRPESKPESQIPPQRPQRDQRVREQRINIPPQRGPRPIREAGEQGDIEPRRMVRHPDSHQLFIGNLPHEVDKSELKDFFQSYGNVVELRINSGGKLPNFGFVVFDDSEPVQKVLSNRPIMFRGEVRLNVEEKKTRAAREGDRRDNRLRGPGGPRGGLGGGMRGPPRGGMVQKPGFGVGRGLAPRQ
Molecule	target	assay	system	conditions	scale	measurement	result
GGGAGUUCUACAGUCCGACGAUCGCAGGAAGUAAAAACAAAUGGAAAUGCUUCGGAUAGUGGCAGGGGUGGGGGUUGAAAAGGAAAGGGUGGGAUGGGAGUGGGUAAAGAGUUUGGAAUUCUCGGGUGUCAAGG (7-deaza-guanosine replaces G)	G3BP1 full length	RNA Bind-n-Seq	RNA, in vitro	200 nM, whole 134-nt RNA, ends assumed, together with: 150 mM LiCl	baseline: input library, higher = stronger binding	log2 enrichment	0.678
PhoQ, residues 284 288 289 292 302 303 SVTLVV	PhoP, residues 12 14 15 18 19 TPWLV (Escherichia coli, UniProt P23836)	Sort-seq, item: YFP reporter	E. coli	PhoQ-PhoP variant library, together with: 10 µM Mg2+	baseline: high Mg2+ state, higher = stronger signaling	fold induction	4.48
GGGAGUUCUACAGUCCGACGAUCCAAGUCCUGUGCUACACAUCGUAUGUACCGAAUCGGAAAAAAAGGAGGAAAAAGGAAAGUAUUAUGUUACGCCGUUCGGAUCUGCACUUCUGGAAUUCUCGGGUGUCAAGG (7-deaza-guanosine replaces G)	G3BP1 full length	RNA Bind-n-Seq	RNA, in vitro	200 nM, whole 134-nt RNA, ends assumed, together with: 150 mM LiCl	baseline: input library, higher = stronger binding	log2 enrichment	-0.511

Repeated from above (series 1):
Oligonucleotide	E-score
TAATTGTA	0.38
GTAGCTAA	0.0408
